Results pooled from the literature.
Lines come from different studies, so protocols differ. ± gives the spread as reported.

`CCCC[C@H](NC(=O)[C@H](Cc1cccs1)NC(=O)[C@H](Cc1c[nH]cn1)NC(=O)CCNC(=O)[C@@H](NC(=O)[C@H](C)NC(=O)[C@H](Cc1c[nH]c2ccccc12)NC(=O)[C@H](CCC(N)=O)NC(=O)[C@H](Cc1cccs1)NC(=O)CN1CCC(NC(=O)CN(CCN(CCN(CC(=O)O)CC(=O)O)CC(=O)O)CC(=O)O)CC1)C(C)C)C(N)=O` [indium-111 labelled] has a tissue uptake of 0.2 ± 0.1 %ID/g (male Swiss nu/nu mice, PC-3 xenograft, blood; intravenous, 10 pmol, 1 h post injection, 111In or 99mTc labelled).
`CSCC[C@H](NC(=O)[C@H](CC(C)C)NC(=O)[C@H](Cc1c[nH]cn1)NC(=O)CNC(=O)[C@@H](NC(=O)[C@H](C)NC(=O)[C@H](Cc1c[nH]c2ccccc12)NC(=O)[C@H](CCC(N)=O)NC(=O)CCCCCCCNC(=O)CCC(=O)Nc1ccc(CNC23CNCCNCC(N)(CNCCNC2)CNCCNC3)cc1)C(C)C)C(N)=O` [copper-64 labelled] has a tissue uptake of 0.469 ± 0.025 %ID/g (female SCID mice, PC-3 xenograft, bone; intravenous, 0.6 MBq, 24 h).
`N=C(N)NCCC[C@@H]1NC(=O)[C@H](CCCCNC(=O)CC[C@H](NC(=O)CCOCCOCCOCCOCCNC(=O)CN2CCN(CC(=O)O)CCN(CC(=O)O)CCN(CC(=O)O)CC2)C(=O)NCCCC[C@@H]2NC(=O)[C@@H](Cc3ccccc3)NC(=O)[C@H](CC(=O)O)NC(=O)CNC(=O)[C@H](CCCNC(=N)N)NC2=O)NC(=O)[C@@H](Cc2ccccc2)NC(=O)[C@H](CC(=O)O)NC(=O)CNC1=O` [indium-111 labelled] has a tissue uptake of 6.36 ± 0.8 %ID/g (female athymic nude mice, kidney; intravenous, 3 µCi, 0.5 h, U-87 MG glioma xenograft).
`CSCC[C@H](NC(=O)[C@H](CC(=O)O)NC(=O)[C@H](CO)NC(=O)[C@H](Cc1c[nH]cn1)NC(=O)[C@H](Cc1c[nH]c2ccccc12)NC(=O)CN1CCN(CC(=O)O)CCN(CC(=O)O)CCN(CC(=O)O)CC1)C(=O)N[C@@H](CCC(=O)O)C(=O)N[C@@H](Cc1c[nH]c2ccccc12)C(=O)N[C@@H](Cc1c[nH]c2ccccc12)C(=O)N[C@@H](Cc1ccc(O)cc1)C(=O)N[C@@H](CC(C)C)C(=O)N[C@@H](CC(C)C)C(=O)NCC(=O)N[C@@H](CCCCNC(=O)COCCOCCNC(=O)CCN1C(=O)C=CC1=O)C(=O)O` [copper-64 labelled] gave a tissue uptake of 1.27 %ID/g (gamma counting; nude mice bearing BGC-823 tumours, BGC-823 tumour; intravenous, 0.74 MBq (0.02 nmol), 4 h).
`N=C(N)NCCC[C@@H]1NC(=O)[C@H](CCCCNC(=O)CCOCCOCCOCCOCCNC(=O)CC[C@H](NC(=O)CCOCCOCCOCCOCCNC(=O)[C@H](CCCCNC(=O)c2ccc(NN)nc2)NC(=O)c2ccc(NN)nc2)C(=O)NCCOCCOCCOCCOCCC(=O)NCCCC[C@@H]2NC(=O)[C@@H](Cc3ccccc3)NC(=O)[C@H](CC(=O)O)NC(=O)CNC(=O)[C@H](CCCNC(=N)N)NC2=O)NC(=O)[C@@H](Cc2ccccc2)NC(=O)[C@H](CC(=O)O)NC(=O)CNC1=O` [technetium-99m labelled] gave a tissue uptake of 2.68 ± 0.4 %ID/g (female athymic nude mice, lungs; intravenous, 0.1 MBq, 1 h, U-87 MG glioma xenograft).
For `CC(C)C[C@H](NC(=O)[C@H](Cc1ccc(O)cc1)NC(=O)[C@@H](CCCNC(=N)N)NC(=O)[C@@H](CO)NC(=O)[C@H](Cc1ccccc1)NC(=O)[C@H](CC1CCCCC1)NC(=O)[C@H](CC(=O)O)NC(=O)CCC(C(=O)O)N1CCCN2CCN(CCCN(CC(=O)O)CC2)CC1)C(=O)N[C@@H](Cc1c[nH]c2ccccc12)C(=O)N[C@@H](CO)C(=O)O` (some centres unmarked) [copper-64 labelled], the tissue uptake was 1.3 ± 0.8 %ID/g (female NMRI nude mice, stomach; 1 h p.i.).
For `CSCC[C@H](NC(=O)[C@H](CC(C)C)NC(=O)[C@H](Cc1c[nH]cn1)NC(=O)CNC(=O)[C@@H](NC(=O)[C@H](C)NC(=O)[C@H](Cc1c[nH]c2ccccc12)NC(=O)[C@H](CCC(N)=O)NC(=O)CNC(=O)[C@H](CO)NC(=O)CNC(=O)CCCCCCCNC(=O)CCC(=O)Nc1ccc(CNC23CNCCNCC(N)(CNCCNC2)CNCCNC3)cc1)C(C)C)C(N)=O` [copper-64 labelled], the tissue uptake was 5.1 %ID/g (female SCID mice, PC-3 xenograft, liver; intravenous, 0.6 MBq, 1 h).
The tissue uptake of `N=C(N)NCCC[C@@H]1NC(=O)[C@H](CCCCNC(=O)CNC(=O)CNC(=O)CNC(=O)CC[C@H](NC(=O)CCOCCOCCOCCOCCNC(=O)CC[C@H](NC(=O)CN2CCN(CC(=O)O)CCN(CC(=O)O)CCN(CC(=O)O)CC2)C(=O)NCCOCCOCCOCCOCCC(=O)N[C@@H](CCC(=O)NCC(=O)NCC(=O)NCC(=O)NCCCC[C@@H]2NC(=O)[C@@H](Cc3ccccc3)NC(=O)[C@H](CC(=O)O)NC(=O)CNC(=O)[C@H](CCCNC(=N)N)NC2=O)C(=O)NCC(=O)NCC(=O)NCC(=O)NCCCC[C@@H]2NC(=O)[C@@H](Cc3ccccc3)NC(=O)[C@H](CC(=O)O)NC(=O)CNC(=O)[C@H](CCCNC(=N)N)NC2=O)C(=O)NCC(=O)NCC(=O)NCC(=O)NCCCC[C@@H]2NC(=O)[C@@H](Cc3ccccc3)NC(=O)[C@H](CC(=O)O)NC(=O)CNC(=O)[C@H](CCCNC(=N)N)NC2=O)NC(=O)[C@@H](Cc2ccccc2)NC(=O)[C@H](CC(=O)O)NC(=O)CNC1=O` [indium-111 labelled] is reported as 0.91 ± 0.08 %ID/g (female athymic nude mice, liver; intravenous, 3 µCi, 24 h, U-87 MG glioma xenograft).
`N=C(N)NCCC[C@@H]1NC(=O)[C@H](CCCCNC(=O)CCOCCOCCOCCOCCNC(=O)CC[C@H](NC(=O)CCOCCOCCOCCOCCNC(=O)c2ccc(NN)nc2)C(=O)NCCOCCOCCOCCOCCC(=O)NCCCC[C@@H]2NC(=O)[C@@H](Cc3ccccc3)NC(=O)[C@H](CC(=O)O)NC(=O)CNC(=O)[C@H](CCCNC(=N)N)NC2=O)NC(=O)[C@@H](Cc2ccccc2)NC(=O)[C@H](CC(=O)O)NC(=O)CNC1=O` [technetium-99m labelled] has a tissue uptake of 1.69 ± 0.46 %ID/g (female athymic nude mice, U-87 MG glioma xenograft, liver; intravenous, 2.5 µCi, 60 min).
For `N=C(N)NCCC[C@@H]1NC(=O)[C@H](CCCCNC(=O)CC[C@H](NC(=O)CCOCCOCCOCCOCCNC(=O)CC[C@H](NC(=O)CN2CCN(CC(=O)O)CCN(CC(=O)O)CCN(CC(=O)O)CC2)C(=O)NCCOCCOCCOCCOCCC(=O)N[C@@H](CCC(=O)NCCCC[C@@H]2NC(=O)[C@@H](Cc3ccccc3)NC(=O)[C@H](CC(=O)O)NC(=O)CNC(=O)[C@H](CCCNC(=N)N)NC2=O)C(=O)NCCCC[C@@H]2NC(=O)[C@@H](Cc3ccccc3)NC(=O)[C@H](CC(=O)O)NC(=O)CNC(=O)[C@H](CCCNC(=N)N)NC2=O)C(=O)NCCCC[C@@H]2NC(=O)[C@@H](Cc3ccccc3)NC(=O)[C@H](CC(=O)O)NC(=O)CNC(=O)[C@H](CCCNC(=N)N)NC2=O)NC(=O)[C@@H](Cc2ccccc2)NC(=O)[C@H](CC(=O)O)NC(=O)CNC1=O` [indium-111 labelled], the tissue uptake was 0.31 ± 0.16 %ID/g (female athymic nude mice, blood; intravenous, 3 µCi, 1 h, U-87 MG glioma xenograft).
The tissue uptake of `N=C(N)NCCC[C@@H]1NC(=O)[C@H](CC(=O)NC23CNCCNCC(N)(CNCCNC2)CNCCNC3)NC(=O)[C@@H](Cc2ccccc2)NC(=O)[C@H](CC(=O)O)NC(=O)CNC1=O` [copper-64 labelled] is reported as 0.87 ± 0.25 %ID/g (male nude tumour-bearing mice, spleen; iv, 10 µCi, 4 h).
The tissue uptake of `N=C(N)NCCC[C@@H]1NC(=O)[C@H](CCCCNC(=O)CC[C@H](NC(=O)[C@H](CCCCNC(=O)c2ccc(NN)nc2)NC(=O)c2ccc(NN)nc2)C(=O)NCCCC[C@@H]2NC(=O)[C@@H](Cc3ccccc3)NC(=O)[C@H](CC(=O)O)NC(=O)CNC(=O)[C@H](CCCNC(=N)N)NC2=O)NC(=O)[C@@H](Cc2ccccc2)NC(=O)[C@H](CC(=O)O)NC(=O)CNC1=O` [technetium-99m labelled] is reported as 0.92 ± 0.11 %ID/g (female athymic nude mice, muscle; intravenous, 0.1 MBq, 1 h, U-87 MG glioma xenograft).
With `N=C(N)NCCC[C@@H]1NC(=O)[C@H](CCCCNC(=O)CCOCCOCCOCCOCCNC(=O)CC[C@H](NC(=O)CCOCCOCCOCCOCCNC(=O)CC[C@H](NC(=O)CN2CCN(CC(=O)O)CCN(CC(=O)O)CCN(CC(=O)O)CC2)C(=O)NCCOCCOCCOCCOCCC(=O)N[C@@H](CCC(=O)NCCOCCOCCOCCOCCC(=O)NCCCC[C@@H]2NC(=O)[C@@H](Cc3ccccc3)NC(=O)[C@H](CC(=O)O)NC(=O)CNC(=O)[C@H](CCCNC(=N)N)NC2=O)C(=O)NCCOCCOCCOCCOCCC(=O)NCCCC[C@@H]2NC(=O)[C@@H](Cc3ccccc3)NC(=O)[C@H](CC(=O)O)NC(=O)CNC(=O)[C@H](CCCNC(=N)N)NC2=O)C(=O)NCCOCCOCCOCCOCCC(=O)NCCCC[C@@H]2NC(=O)[C@@H](Cc3ccccc3)NC(=O)[C@H](CC(=O)O)NC(=O)CNC(=O)[C@H](CCCNC(=N)N)NC2=O)NC(=O)[C@@H](Cc2ccccc2)NC(=O)[C@H](CC(=O)O)NC(=O)CNC1=O` [indium-111 labelled] the tissue uptake was 0.66 ± 0.08 %ID/g (female athymic nude mice, lungs; intravenous, 3 µCi, 72 h, U-87 MG glioma xenograft).
`N=C(N)NCCC[C@H](NC(=O)[C@H](CCCCN)NC(=O)[C@H](CCC(N)=O)NC(=O)CCOCCOCCOCCNC(=O)CN1CCN(CC(=O)O)CCN(CC(=O)O)CCN(CC(=O)O)CC1)C(=O)N[C@@H](CCCCN)C(=O)N[C@@H](CCCNC(=N)N)C(=O)N[C@@H](CCCCN)C(=O)N[C@@H](CCCCN)C(=O)N[C@@H](CO)C(=O)N[C@@H](CCCNC(=N)N)C(=O)N[C@@H](Cc1ccc(O)cc1)C(=O)N[C@@H](CCCCN)C(=O)N[C@@H](CO)C(=O)O` [copper-64 labelled] has a tissue uptake of 0.51 ± 0.1 %ID/g (C57BL/6 mice, B16-F10 tumour, thymus; intravenous, 60 min).

Repeated from above:
`N=C(N)NCCC[C@@H]1NC(=O)[C@H](CCCCNC(=O)CCOCCOCCOCCOCCNC(=O)CC[C@H](NC(=O)CCOCCOCCOCCOCCNC(=O)[C@H](CCCCNC(=O)c2ccc(NN)nc2)NC(=O)c2ccc(NN)nc2)C(=O)NCCOCCOCCOCCOCCC(=O)NCCCC[C@@H]2NC(=O)[C@@H](Cc3ccccc3)NC(=O)[C@H](CC(=O)O)NC(=O)CNC(=O)[C@H](CCCNC(=N)N)NC2=O)NC(=O)[C@@H](Cc2ccccc2)NC(=O)[C@H](CC(=O)O)NC(=O)CNC1=O` [technetium-99m labelled] gave a tissue uptake of 2.68 ± 0.4 %ID/g (female athymic nude mice, lungs; intravenous, 0.1 MBq, 1 h, U-87 MG glioma xenograft).
